Measured values of several laboratories.
Numbers after ± are the reported error.

SMILES	target or system	test	system	conditions	how to read	quantity	value
O=C1c2sc(-c3ccc(N4CCC(CO)CC4)nc3F)nc2CCN1c1cccnc1	–	autoradiography	human, AD entorhinal cortex tissue	20 nM	–	binding to tau tangles	no binding
Cn1c(=O)oc2ccc(-c3ccc(CC(C#N)NC(=O)C4CNCCCO4)c(F)c3)cc21 (stereo not drawn)	–	–	human volunteers, plasma	40 mg single dose, fasted, median	–	Tmax	1 h
CC(=O)OCOC(=O)CN(CC(=O)OCOC(C)=O)Cc1c(OC(C)=O)ccc2c1Oc1c(ccc(OC(C)=O)c1CN(CC(=O)OCOC(C)=O)CC(=O)OCOC(C)=O)C21OC(=O)c2ccccc21	A2780cis	refers to: caspase-3/7	–	with: rucaparib	lower = more synergy	combination index	< 1
Cc1cc(-c2ccc(NC(=O)[C@H](CCCCNC(=O)CCOCCOCCC(=O)N[C@H](Cc3ccccc3)C(=O)N[C@H]3CSSC[C@@H](C(=O)N[C@H](C(=O)O)[C@@H](C)O)NC(=O)[C@H]([C@@H](C)O)NC(=O)[C@H](CCCCN)NC(=O)[C@@H](Cc4c[nH]c5ccccc45)NC(=O)[C@H](Cc4ccc(O)cc4)NC3=O)NC(=O)CN3CCN(CC(=O)O)CCN(CC(=O)O)CCN(CC(=O)O)CC3)c(C)c2)ccc1N=Nc1ccc2c(S(=O)(=O)O)cc(S(=O)(=O)O)c(N)c2c1O [lutetium-177 labelled]	–	–	patients with metastatic NETs, lymph node metastases	–	–	initial uptake	12 % injected activity
Cc1nn(-c2ccc(S(=O)(=O)N[C@@H](CO)CC(C)C)cc2)c2nn3nnnc3nc12	PC-3	PI/Hoechst staining	–	0.5 µM, 24 h	–	necrotic cells	21 ± 4.24%
NS(=O)(=O)Nc1ncnc(OCCOc2ncc(Br)cn2)c1-c1ccc(Br)cc1	–	M6 formation	female Sprague-Dawley rat, liver microsomes	450 mg/kg daily for 4 weeks	–	Km	2.1 ± 0.6 µM
CC(=O)[O-].O.O.[O-]c1ccc(Br)cc1C=NCCN1CCOCC1.[Zn+2]	Albumin (ALB, Bos taurus, UniProt P02769)	binding, UV absorption titration, refers to: BSA band at 278 nm	–	pH 7.2, 25 °C	relative to: free BSA	absorption band blue shift	3 nm
CNc1ccccc1C(=O)O[C@H]1C[C@H](n2cnc3c(N)ncnc32)O[C@@H]1COP(=O)(O)OP(=O)(O)O	Unconventional myosin-Va (Gallus gallus, UniProt Q02440, D297C/G292C/I296C/S293C/V295G)	stopped-flow FRET	–	15 °C, with: MgCl2 2 mM	–	pocket reverse rate constant	2.22 ± 0.28 s⁻¹
CO[C@@H]1[C@H](O)[C@@H](COP(=O)(O)OP(=O)([O-])C(F)(F)P(=O)(O)OP(=O)(O)OC[C@H]2O[C@@H](n3cnc4c(=O)[nH]c(N)nc43)[C@H](O)[C@@H]2O)O[C@H]1n1c[n+](C)c2c(O)nc(N)nc21	–	cap-dependent translation, inhibitor	rabbit reticulocyte lysate	60 min, 30 °C, no preincubation	–	IC50	2160 ± 230 nM
Cc1c(C(=O)Nc2ccn(C)n2)ncn1Cc1cccc(C(F)(F)F)c1	–	immunohistochemistry, refers to: human αS aggregates	human WT αS transgenic mouse, cortex	dose not given	relative to: placebo	pS129-positive proteinase K-resistant granules	decreased
O=C1c2sc(-c3ccc(N4CCC(F)C4)nc3F)nc2CCN1c1cccnc1 (stereo not drawn)	–	autoradiography	human, AD entorhinal cortex tissue	20 nM	–	binding to tau tangles	no binding
Cc1cc(CNCCCCCC(=O)NO)ccc1OCc1cccc(-c2ccccc2)c1C	mouse bone marrow-derived macrophages	real-time PCR, refers to: Arg1	–	concentration not given, 24 h, with: IL-4 and IL-13	–	mRNA level	decreased
